Published values pooled from the literature.
Compare with care: the assays were run in different laboratories. ± marks the error that the study gave.

Cn1cc(-c2ccc(-c3cncc(Cl)c3N3CCC4(CCNC4=O)CC3)cc2)cn1  log2 fold change (COLO 205; gene expression, microarray, measured: POU2AF1 (BOB1) mRNA; concentration not given, 6 h; reference: untreated cells): -4.11
CC(C)NCC(O)c1ccc(O)c(O)c1 (stereo not drawn)  sarcomere length (mouse ventricular cardiomyocytes; dose not given, 0.059 s): 1.8 µm
CC1(C)CCC(CN2CCN(c3ccc(C(=O)NS(=O)(=O)c4ccc(NCC5CCOCC5)c([N+](=O)[O-])c4)c(Oc4cnc5[nH]ccc5c4)c3)CC2)=C(c2ccc(Cl)cc2)C1  viable cells (THP-1; annexin V/PI flow cytometry, measured: annexin V-/PI-; 0.8 µM, 24 h): 94.1%
COc1cnc2cccc(N3CCc4c(cc(Cn5ccnc5C)cc4-c4cn(C)nc4C(F)(F)F)C3=O)c2c1  EC50 (JHOM1; cell growth; 120 h): > 30 µM
CC/C(=N\NC(=O)NCc1cccc(O)c1)c1ccc(O)c(C)c1O  protein level (SK-OV-3; Western blot, measured: phospho-YAP; 10 µM, 3 h, 2D culture, unit not given; reference: total YAP): 0.24 ± 0.04
CCn1cc(-c2cc(Cn3ccnc3)cc3c2CCN([C@H](c2cc(OC)ccn2)C2CC2)C3=O)c(C(F)(F)F)n1  EC50 (SNU-398; cell growth, inhibitor; 120 h): 3.25 µM
O=C(/C=C/C=C/C=C/C1CCCCC1)NC1=C[C@@](O)(/C=C/C=C/C=C/C(=O)NC2=C(O)CCC2=O)[C@@H]2O[C@@H]2C1=O  GI50 (NCI-H2171; cell growth, CellTiter-Glo; 78 h): 17.5 µM
CCCCc1nc(Cl)c(CO)n1Cc1ccc(-c2ccccc2-c2nn[nH]n2)cc1  log2 fold change (human PBMC; RNA-seq, measured: CCM2L mRNA; 10 µg/mL, 24 h; reference: untreated control): 2.83
CCn1cc(-c2cc(Cn3ccoc3=N)cc3c2CCN([C@@H](C)c2cc(OC)ccn2)C3=O)c(C(F)(F)F)n1  EC50 (G-401; cell growth, inhibitor; 120 h): 0.0834 µM

Excerpt of the above:
CC1(C)CCC(CN2CCN(c3ccc(C(=O)NS(=O)(=O)c4ccc(NCC5CCOCC5)c([N+](=O)[O-])c4)c(Oc4cnc5[nH]ccc5c4)c3)CC2)=C(c2ccc(Cl)cc2)C1  viable cells (THP-1; annexin V/PI flow cytometry, measured: annexin V-/PI-; 0.8 µM, 24 h): 94.1%
COc1cnc2cccc(N3CCc4c(cc(Cn5ccnc5C)cc4-c4cn(C)nc4C(F)(F)F)C3=O)c2c1  EC50 (JHOM1; cell growth; 120 h): > 30 µM
